Results from different studies.
Each line is one published result; not all experiments were run side by side. Values joined by “and” are separate records of one study, mostly repeats; a detail may differ. Numbers after ± are the reported error.
Chain of UniProt Q64663 (whole entry, unmodified, looked up): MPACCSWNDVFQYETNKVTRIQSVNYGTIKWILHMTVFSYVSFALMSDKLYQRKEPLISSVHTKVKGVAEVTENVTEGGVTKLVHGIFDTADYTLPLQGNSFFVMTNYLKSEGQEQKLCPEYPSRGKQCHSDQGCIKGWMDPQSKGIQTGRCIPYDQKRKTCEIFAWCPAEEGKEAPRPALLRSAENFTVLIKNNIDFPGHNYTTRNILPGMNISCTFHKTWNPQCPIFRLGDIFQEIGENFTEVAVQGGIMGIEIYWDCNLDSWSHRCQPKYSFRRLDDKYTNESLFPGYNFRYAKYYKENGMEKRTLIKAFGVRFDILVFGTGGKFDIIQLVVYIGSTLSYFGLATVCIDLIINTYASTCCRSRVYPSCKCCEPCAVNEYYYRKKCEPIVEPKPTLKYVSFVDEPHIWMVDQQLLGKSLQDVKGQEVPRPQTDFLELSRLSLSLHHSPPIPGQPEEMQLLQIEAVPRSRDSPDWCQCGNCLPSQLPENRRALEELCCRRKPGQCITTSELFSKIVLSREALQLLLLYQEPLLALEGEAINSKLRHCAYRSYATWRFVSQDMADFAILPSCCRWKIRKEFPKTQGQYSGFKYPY

Substance	target or system	assay	test system	setting	how to read	endpoint	result
Ubiquitin fragment (Homo sapiens)		NMR, refers to: Lys63				pKa	11
insulin aspart		ELISA, refers to: total insulin aspart	human, type 1 diabetes, serum	subcutaneous, dose not given, least squares mean, single dose		onset of appearance	5.2 min
ACDDQNPWRAYLDLLFPTDTLLLDLLW		ex vivo fluorescence imaging	peptide, BALB/c mice, 4T1 tumour-bearing, kidney	intravenous, 5 nmol, 2 h post-injection	higher = more uptake	mean fluorescence intensity	880 ± 51.2 a.u.
11-deoxycorticosterone	CYP11B2 (human)	substrate binding, stopped-flow global kinetic fitting	purified enzyme	3-state conformational selection model, together with: 10-fold excess adrenodoxin		rate constant k-2	15.7 ± 1.15 s⁻¹
insulin icodec			human severe renal impairment	concentration not given		participants with adverse events	50%
colistin	Pseudomonas aeruginosa	broth microdilution	clinical isolate RKI-No_496/15			MIC	1 mg/L
adrenomedullin		RP-HPLC	HALO C18 column	25 µM, acetic acid/methanol, 25 min gradient		retention time	13 min
ACEQNPIYWARYADWLFTTPLLLLDLALLVDADEGT		ex vivo fluorescence imaging	peptide, BALB/c mice, 4T1 tumour-bearing	intravenous, 5 nmol, 4 h post-injection, background-corrected mean fluorescence	relative to: tumour over muscle	contrast index	5.2 ± 0.6
FNA / CGLSGLGVA-NH2 ([18F]FNA-labelled, C-amide)		ex vivo gamma counting	peptide, healthy mouse, ovaries	60 min post injection		tissue uptake	0.45 %ID/g
insulin aspart		ELISA	human, adults with type 1 diabetes, up to 35 years, serum	subcutaneous, 0.2 U/kg		time to early 50% Cmax	26.6 min
pegcetacoplan		refers to: infections and infestations	patients with PNH	dose not given, phase Ib trial		number of TEAEs	10
human insulin		ELISA	pig, anaesthetized, serum	jejunal wall, 20 IU, -20 to +420 min, robotic ingestible pill		AUC	83 ± 18 nmol·min/L
Peginesatide	UT7/EPO	tyrosine phosphorylation, LC-MS/MS phosphoproteomics, GluC, refers to: SH2B3 tyrosine 572		10 nM, 15 min, together with: 10 U/mL EPO	relative to: vehicle	phosphorylation level	49.9 fold
BzATP	P2X purinoceptor 7 (P2rx7, Rattus norvegicus, UniProt Q64663, Q143A/R125A)	ion current, agonist, two-electrode voltage clamp	Xenopus laevis oocytes	11 µM	relative to: highest concentration response	normalized current	0.349 and 0.266 and 0.308
insulin degludec			human	subcutaneous, 0.4 IU/kg, 2 FC level, single dose, reference formulation		apparent volume of distribution	33.4 ± 7.6 L
GSGAGIATEV	human MAGI1-3/6 PDZ construct (MBP fusion)	surface plasmon resonance	peptide	concentration not given	higher = stronger binding	normalised SPR binding response	5.5 normalised RU
ACEEQNPWARYLEWLFPTETLLLEL		ex vivo fluorescence imaging	peptide, BALB/c mice, 4T1 tumour-bearing, kidney	intravenous, 5 nmol, 24 h post-injection	higher = more uptake	mean fluorescence intensity	821 ± 122 a.u.
Neuropeptide Y		RP-HPLC	HALO C18 column	25 µM, formic acid/methanol, 25 min gradient		retention time	17.9 min

For quick reference, copied from above:
Substance	target or system	assay	test system	setting	how to read	endpoint	result
adrenomedullin		RP-HPLC	HALO C18 column	25 µM, acetic acid/methanol, 25 min gradient		retention time	13 min
ACEQNPIYWARYADWLFTTPLLLLDLALLVDADEGT		ex vivo fluorescence imaging	peptide, BALB/c mice, 4T1 tumour-bearing	intravenous, 5 nmol, 4 h post-injection, background-corrected mean fluorescence	relative to: tumour over muscle	contrast index	5.2 ± 0.6
FNA / CGLSGLGVA-NH2 ([18F]FNA-labelled, C-amide)		ex vivo gamma counting	peptide, healthy mouse, ovaries	60 min post injection		tissue uptake	0.45 %ID/g
